# Measurements of several laboratories.
# Numbered parts are unrelated; each lists some results of a single study. Several values in a cell are separate wells, animals, samples, runs or records.

# Sample 1
# Target: RING finger protein unkempt homolog, zinc fingers 1-6, GST-SBP tag (UNK, Homo sapiens, UniProt Q9C0B0, residues 30-357)
# Technique: RNA Bind-n-Seq
# Molecule type: RNA
# Medium: in vitro
# Concentration: not given
# Setting: RNA with constant flanks, human-mouse chimeric sites, ends assumed
# Relative to: input RNA pool
# Direction: higher = stronger binding
# Residues (chain): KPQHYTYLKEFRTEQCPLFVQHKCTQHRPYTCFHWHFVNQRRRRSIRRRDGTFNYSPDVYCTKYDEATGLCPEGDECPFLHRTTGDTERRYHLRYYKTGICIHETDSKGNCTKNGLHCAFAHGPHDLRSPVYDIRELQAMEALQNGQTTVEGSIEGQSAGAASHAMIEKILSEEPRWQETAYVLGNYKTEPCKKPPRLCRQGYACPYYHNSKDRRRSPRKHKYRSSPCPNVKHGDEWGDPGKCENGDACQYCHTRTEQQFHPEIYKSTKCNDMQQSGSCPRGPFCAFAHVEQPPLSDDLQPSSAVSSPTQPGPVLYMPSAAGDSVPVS
Sequence,bound/input enrichment [ratio]
GGGAGUUCUACAGUCCGACGAUCGAUAGGAAAAGCUUGUUGGAGACCCGCUUGCAUGUCACUGGUAGAGACCUGAGGUGUAAAAUAGCUGAAACUUUCGGAUUUCAAGAAAAUUACAUCAAGAUCGUAAUAAAUAAGAAACAGCAACAGAGGAUUGAGCAUCA,0.633
GGGAGUUCUACAGUCCGACGAUCCGCUUGGAUGAGGCGGGUGUCACAGAUGAAGUGCUAGAUUCUGCCAUGCAAGCCUUCCUUCUGGAGGUCAUUGUUAAGCAUGGGGAGCCAGCCCCUUAUUUAUGUAACAAAGAUCCGUUUCAACAGAGGAUUGAGCAUCA,0.0938
GGGAGUUCUACAGUCCGACGAUCAACGUGGAGUUGAGUUCCUUGGCCCGGCUUCCCAGCUUAAAUAAACUUCGAAAAUUGGAACUUAGUGACAAUAUAAUUUCUGGAGGCUUGGAAGUCCUGGCAGAGAAAUGUCCAAAUCUUCAACAGAGGAUUGAGCAUCA,0.366
GGGAGUUCUACAGUCCGACGAUCUCUUUAAAUGCACUACAACCUUUUCUGACAGUGCUUUAUGGAGUAAAGAUCCACGUUCAAGCUCAAAGAGCAAAGGCUUUGCACGGAGCUCAAACAUCUGAUGAAGAAAGAUUUCUGAGACAACAGAGGAUUGAGCAUCA,0.0662

# Sample 2
# Target: RNA binding protein fox-1 homolog 2, RRM domain, GST-SBP tag (RBFOX2, Homo sapiens, UniProt O43251-10, residues 100-194)
# Technique: RNA Bind-n-Seq
# Molecule type: RNA
# Medium: in vitro
# Concentration: 365 nM
# Setting: natural RNA segment, single round, ends assumed
# Relative to: no-protein control
# Direction: higher = stronger binding
# Shared flanks, not repeated: GGGAGUUCUACAGUCCGACGAUC … UGGAAUUCUCGGGUGCCAA
# Residues (chain): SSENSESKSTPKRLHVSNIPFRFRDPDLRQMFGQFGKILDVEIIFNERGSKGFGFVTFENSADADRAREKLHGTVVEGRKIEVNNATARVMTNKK
Sequence,RBNS enrichment (R)
CAUUUCUGUAUAGCAGGCGUGUGUGUGUGUGUCGAGGUUUUUUAUUUUUUGCUUAAUCAAACUCCAUUCCCAAAUGCACUCCAUCUCUGGCUCUGAGGGCGCUCCCUCCU,0.397
GAAGGUCCACAAAUAGCAGUUCACAUCACAGCCCUGCAGUCCCCUUUUGUAGCUGUGUUUAAGGUCAUUUCCAUCAAUGAUGGGGUCUGCUCCCUCCCUCCCUGUAAGCU,0.423
CUGUUUUUGUUGAAUCGAGUUCUCAAAUCGGUUUAGACCAAAGCCAUUCUUCUGACCCUCUAGAUAAGCGUAGCCUACAACCCAGUGCCGUAAGUUUCCAAGAUUCAAGA,0.228
GACUAUCCUGAAAAGAAAUAAUAAUCAUUUUAUGAUUGAUGGGCCAAAAAAAGCAAUCAAAGUCUUACGUCAUAGAGGACCACCUUUUGGAUCAUAAAUUCUUUCCCUAU,0.287
ACUUGAAUGGAACAGAAGCAAGCCUUAUGUUUUGGAAGGUCUGCGGUAAAAUGCUGUGACUGUUUACUUUCAAUUGCAUUGUGUGUUGCCUGUGACUGCUUUCAAACGCU,18.2
CGCGCCACUUUGCAUUCCCACGGGACUCAUGUACCUCCCGCAGAGCCGUCCCCGUCAAGGUGUGGGGCUCCUUUCAUGCAUUUGCUUCUUUUCCAGAGUGUGGAUUUGAA,0.977
UAUAACAUAUUUAUAAAUGUUACUCAGGUUAAAAGUAUUUAAGAAUACAGUUAACUAAUUGUAAAUAUGCUGUUAACCAAAAGAGCUUUCCCUCCCUCACUUUUUCCUUU,0.386
UCCUACCACUGAGCGCCUUUGCCAGGUCCAGCCUGGGCUCAGGUUCCAAGACUCAGCUGCCUAAUCCCAGGGUUGAGCCUUGUGCUCGUGGCGGACCCCAAACCACUGCC,0.231

# Sample 3
# Target: Replicase polyprotein 1ab, main protease (rep, Severe acute respiratory syndrome coronavirus 2, UniProt P0DTD1)
# Observed: enzyme activity
# Mode: inhibitor
# Concentration: 20 µM
# Setting: primary screen
Structure (SMILES),inhibition
Cc1ccc([N+](=O)[O-])cc1S(=O)(=O)N(C)C,45.8%
O=C(/C=C/c1ccc(O)c2c1[C@@H](C(=O)O[C@H](Cc1ccc(O)c(O)c1)C(=O)O)[C@H](c1ccc(O)c(O)c1)O2)O[C@H](Cc1ccc(O)c(O)c1)C(=O)O,90.8%
CCOC(=O)C1=C(C)NC(=S)NC1c1cccc(O)c1 (stereo not shown),87.8%
O=C1NC(=O)C(c2ccccc2)N1 (stereo not shown),64%

# Sample 4
# Target: Ras GTPase-activating protein-binding protein 1, RRM domain (G3BP1, Homo sapiens, UniProt Q13283)
# UniProt Q13283, sequence (whole entry, looked up): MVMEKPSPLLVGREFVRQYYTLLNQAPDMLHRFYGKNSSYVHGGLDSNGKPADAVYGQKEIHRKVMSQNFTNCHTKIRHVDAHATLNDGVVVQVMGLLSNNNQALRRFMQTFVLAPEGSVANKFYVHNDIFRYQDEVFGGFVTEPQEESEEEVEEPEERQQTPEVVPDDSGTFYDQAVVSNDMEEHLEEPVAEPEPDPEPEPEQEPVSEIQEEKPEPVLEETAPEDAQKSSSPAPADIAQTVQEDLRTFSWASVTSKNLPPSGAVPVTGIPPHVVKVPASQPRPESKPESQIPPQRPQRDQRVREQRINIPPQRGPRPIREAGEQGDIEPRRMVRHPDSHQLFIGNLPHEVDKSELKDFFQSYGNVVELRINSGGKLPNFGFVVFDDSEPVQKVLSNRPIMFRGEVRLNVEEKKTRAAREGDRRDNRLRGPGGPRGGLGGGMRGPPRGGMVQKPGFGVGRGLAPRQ
# Technique: RNA Bind-n-Seq
# Molecule type: RNA
# Medium: in vitro
# Concentration: 1 µM
# Setting: whole 134-nt RNA, ends assumed
# Added: 150 mM KCl
# Relative to: input library
# Direction: higher = stronger binding
# Shared flanks, not repeated: GGGAGUUCUACAGUCCGACGAUC … UGGAAUUCUCGGGUGUCAAGG
Sequence,log2 enrichment
CUGUGCUACACAUCGUAUGUACCGAAUCAAACCCCCCCAAACCCCCCCAAAUUUUUUUAAAAAAGUAUUAUGUUACGCCGUUCGGAUCUG,-0.598
UAUCAGGAGGGCAGACUUCAAAAGCUACUAAAAAUGAACGGCCCUGAAGAUCUUCCCAAGUCCUAUGACUAUGACCUUAUCAUCAUUGGA,-0.219
UAACUUUAGAGGAGGAUCUGAUGGUUAUGGCAGUGGACGUGGAUUUGGGGAUGGCUAUAAUGGGUAUGGAGGAGGACCUGGAGGUGGCAA,-0.81
UCAAGUCCUGUGCUACACAUCGUAUGUACCGAAUCGGGAAGGAAGGGGAAGGGGAAAGUAUUAUGUUACGCCGUUCGGAUCUGCACUUCC,0.626
AUGUUCUUGAAUACUUAGCAAACAUACCAGCAUCCCAAAGUCACCAAGAUAAACCCUCCUACUCCAACAUCACAUGAUCUUCUAAUUCUA,-0.0878
AGUCCUGUGCUACACAUCGUAUGUACCGAAUCAAAUUUAAACCCCCAAACCCCCAAAAAAGUAUUAUGUUACGCCGUUCGGAUCUGCACU,-0.291

# Sample 5
# Cell line: HEK-293T/ACE2
# Concentration: 10 µM
# Time: 16 h
# Relative to: vehicle
Compound,viability
COc1ccccc1OCC(O)CO (stereo not shown),96.5%
Nc1ccncc1,99.5%
OC(CCCN1CCCCC1)(c1ccccc1)c1ccccc1,102%
CN(C)CCCN1c2ccccc2Sc2ccccc21,101%

# Sample 6
# Target: Replicase polyprotein 1ab, nsp13 helicase (rep, Severe acute respiratory syndrome coronavirus 2, UniProt P0DTD1)
# Mode: inhibitor
# Concentration: 20 µM
SMILES,inhibition
O=[N+]([O-])c1cccc2c(Br)[nH]nc12,2.42%
CCN1C[C@H](C)n2c(c(O)c3c(=O)n(Cc4ccc(F)c(Cl)c4)nc(C(=O)NC)c32)C1=O,23.5%
NC(=O)Nc1cc(-c2cccc(F)c2)sc1C(=O)N[C@H]1CCCNC1,6.86%
CN(C)NC(=O)CCC(=O)O,2.46%
CCN(C(C)=O)c1cccc(-c2ccnc3c(C#N)cnn23)c1,-2.21%
C[C@]12CC[C@H]3[C@@H](CCC4=CC(=O)CC[C@@H]43)[C@@H]1CC[C@@H]2O,-2.74%
CCOc1ccc(Cc2cc([C@@H]3O[C@H](SC)[C@@H](O)[C@H](O)[C@H]3O)ccc2Cl)cc1,7.54%
CCCCC(=O)O[C@H]1CC[C@H]2[C@@H]3CCc4cc(O)ccc4[C@H]3CC[C@]12C,1.07%
COc1ccc(-c2ccc3c(N4CCOC[C@@H]4C)nc(N4CCOC[C@@H]4C)nc3n2)cc1CO,1.11%
CN1C(=O)CC(C)(c2ccccc2)C1=O (stereo not shown),4.26%
OC[C@H]1O[C@@H](Oc2ccc(O)cc2)[C@H](O)[C@@H](O)[C@@H]1O,4.77%
N=C(N)NC(=N)NCCc1ccccc1,-1.95%
CCN(CC)CC1CCN(c2ncc3ncnc(Nc4ccc(F)c(Cl)c4)c3n2)CC1,14.4%
CCCCCCCCCCCCCCCC[N+](C)(C)CCN(Cc1ccc(OC)cc1)c1ncccn1,35.6%
CN1C(CCl)Nc2cc(Cl)c(S(N)(=O)=O)cc2S1(=O)=O (stereo not shown),4.61%
Cn1nccc1Nc1nccc(-c2ccn([C@H](CO)c3ccc(Cl)c(F)c3)c(=O)c2)n1,-9.73% and 5.07%
Cc1cc(-c2ccc(/N=N/c3ccc4c(S(=O)(=O)O)cc(S(=O)(=O)O)c(N)c4c3O)c(C)c2)ccc1/N=N/c1ccc2c(S(=O)(=O)O)cc(S(=O)(=O)O)c(N)c2c1O,103%
O=C(CCCCCCCn1cc(-c2cccnc2)nn1)Nc1ccccc1-c1ccccc1,-1.1%
C[C@]12CCC(=O)C[C@@H]1CC[C@@H]1[C@@H]2CC[C@]2(C)[C@@H](O)CC[C@@H]12,6.53%
c1ccc(Cn2c(-c3ccc(OC[C@H](C4CCNCC4)n4c(-c5ccccc5)nc5ccccc54)cc3)nc3ccccc32)cc1,52.1%
Clc1cccc(C(c2ccc3[nH]cnc3c2)n2ccnc2)c1 (stereo not shown),2.55%
O=c1ccc2ccc(OCCCCN3CCN(c4cccc5sccc45)CC3)cc2[nH]1,11.6%
O=c1cc(N2CCNCC2)oc2c(-c3ccccc3)cccc12,3.4%

# A few entries again (sample 6):
SMILES,inhibition
CCCCCCCCCCCCCCCC[N+](C)(C)CCN(Cc1ccc(OC)cc1)c1ncccn1,35.6%
O=C(CCCCCCCn1cc(-c2cccnc2)nn1)Nc1ccccc1-c1ccccc1,-1.1%
CN1C(CCl)Nc2cc(Cl)c(S(N)(=O)=O)cc2S1(=O)=O (stereo not shown),4.61%
C[C@]12CC[C@H]3[C@@H](CCC4=CC(=O)CC[C@@H]43)[C@@H]1CC[C@@H]2O,-2.74%
CCOc1ccc(Cc2cc([C@@H]3O[C@H](SC)[C@@H](O)[C@H](O)[C@H]3O)ccc2Cl)cc1,7.54%
